Assay results pooled from the literature.
Every numbered part comes from another study and shows a few of its results, in no order. Changes are numbered by the printed parent chain.

Study 1
Target: RNA binding protein fox-1 homolog 2, RRM domain, GST-SBP tag (RBFOX2, Homo sapiens, UniProt O43251-10, residues 100-194)
Method: RNA Bind-n-Seq
Form: RNA
Sample: in vitro
Concentration: 365 nM
Notes: natural RNA segment, single round, ends assumed
Baseline: no-protein control
Reading: higher = stronger binding
All sequences stand within: GGGAGUUCUACAGUCCGACGAUC … UGGAAUUCUCGGGUGCCAA
Oligonucleotide | RBNS enrichment (R)
GGAAGGAAGGCCAGGCUAGUUUAGGGCUCAGCGCGUCUCACCAGAGCCCUUCCAUACUCUGUGACUCUCAGUGUGAAUUGGAAUGCAAUUCUUUCCCUAAAAUGUGUGGA | 1.72
GAUCUUUGCCCAUGGAAGUCUCAAAGAUCUUUCGUUGGUUGUUUCUCUGAGCUUUGUUACUGAAAUGAGCCUCGUGGGGAGCAUCAGAGAAGGCCAGGAAGAAUGGUGUG | 4.62
UCUUGCUCUGUGGAAUUUUGUGCUUACUACUGUAUAGUGCAUGUGGCUUAGGUUACCCUAGCUGGUUUUGUCCGUGUAAACAUUGAAAGUAUUAUAUUUUUAUAGAAAUG | 1.47
GGUACUUGUGUACUUGUACAUAAAACCAAAAUUAUAGUUGGGAAAAAAAUAAAUUUAUAUAUGAAAAUGUCAAAAUCAUUUUAAAAGUAUUAUUUUCAAAUAAAAUGGAG | 0.778
AAUUAGUGAUGAUGGUGGGCGUGAUGGAAAGAAAGAGGUGAGUGGAGACUCAGCCUGGCUAUUCUUGAGCAUGGACAGUUGUUUCUCAAGGUGUCUUCUGACUCUCCUUC | 0.969
UGGAUGUAAGCUUGCUUGAGAACUAUGGGUUUUAGCUAUUCUGGUGUCUCCCUGAUUUUCUACAGCGCCAGGAUCCUAGUUUGGUGAGGUUUUAAAUUUAAUCUUAUUUU | 0.528
AGCGAGGAGAUGCUCCUUGGGCCCUUUGAGUGCAGUCCUGAUCAGAGCCGUGGUCCUUUGGGGUGAACUACCUUGGUUCCCCCACUGAUCACAAAAACAUGGUGGGUCCA | 0.43
UAAUCCUGACGUGGGGUGGAGUGGGGUGAGGCAGAGGGAGCAGCCCCAACACCUGCACUGGGCCAUCUAUGGGAAAGAACACGGGUCGAGUGCAGUCGAGUUGUCUGGCC | 1.48

Study 2
Target: CCNE1, cyclin fold, Cln2 fusion (human)
Method: yeast growth competition, sequencing
Sample: yeast
Notes: strong parent motif
Baseline: not given
Reading: higher = stronger binding
Starting sequence: PKMYT1 docking peptide (human); SFEPRNLLSLFED; partner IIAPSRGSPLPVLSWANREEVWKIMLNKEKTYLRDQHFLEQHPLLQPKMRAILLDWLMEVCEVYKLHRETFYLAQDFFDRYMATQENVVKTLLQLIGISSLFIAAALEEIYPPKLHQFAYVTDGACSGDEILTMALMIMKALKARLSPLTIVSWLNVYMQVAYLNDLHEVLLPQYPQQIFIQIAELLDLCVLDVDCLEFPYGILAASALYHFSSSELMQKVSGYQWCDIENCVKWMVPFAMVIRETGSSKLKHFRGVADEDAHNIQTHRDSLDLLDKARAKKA
Variant | normalised enrichment score
S1H | 1.57
E3K | 3.45
N6G | 1.3
E3P | 1.13
F2L | 1.3
P4L | 0.869
L10G | 1.2
N6R | 1.12
F11E | 0.119
E12G | 1.65
L7V | 0.872
E12F | 1.51
E12V | 2.34
E12M | 1.79
F2W | 1.37
L7A | 0.655
S9G | 1.47
D13V | 1.68
L10C | 1.57
R5G | 1.26
L7W | 0.589
N6T | 0.0694
N6I | 1.31
S1Y | 1.01

Study 3
Target: Histone acetyltransferase KAT6A, both winged helices, GST fusion (KAT6A, Homo sapiens, UniProt Q92794, residues 1-181)
Method: protein binding microarray
Form: double-stranded DNA, one strand shown
Sample: in vitro
Concentration: not given
Notes: 8-mer, flanks averaged, mean of 2 arrays, mostly near background
Baseline: not given
Reading: higher = stronger binding
Residues (chain): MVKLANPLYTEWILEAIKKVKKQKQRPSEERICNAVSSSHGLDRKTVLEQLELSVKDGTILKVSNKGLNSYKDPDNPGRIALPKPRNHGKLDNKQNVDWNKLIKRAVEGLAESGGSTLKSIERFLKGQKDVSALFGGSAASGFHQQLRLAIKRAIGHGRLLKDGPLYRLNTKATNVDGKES
Oligonucleotide | E-score
AGAATAAT | -0.121
GCCTGAAC | -0.00482
AAAGGCTC | -0.00613
ACCTAAAC | -0.105
GGGCCGAA | 0.0407
CGTTCATA | 0.0426
CACTAGGC | -0.00533
TAACGTCA | -0.0369
AACCTCTT | 0.0128
ACGTCCAG | -0.0963
CTCAAACC | 0.0124
ATTCACGC | 0.114
CGGGGGTC | 0.224
GCACTGCA | -0.168
ATTGGATC | -0.0947
CAACGAGG | -0.0761
TCCGTAGA | 0.143

Study 4
Target: Interferon regulatory factor 7, full length, phosphomimetic (IRF7, Homo sapiens, UniProt Q92985, residues 1-503, S101K/S471D/S472D/S475D/S476D/S477D/S483D/S484D/S487D)
UniProt Q92985, sequence (whole entry, unmodified, looked up): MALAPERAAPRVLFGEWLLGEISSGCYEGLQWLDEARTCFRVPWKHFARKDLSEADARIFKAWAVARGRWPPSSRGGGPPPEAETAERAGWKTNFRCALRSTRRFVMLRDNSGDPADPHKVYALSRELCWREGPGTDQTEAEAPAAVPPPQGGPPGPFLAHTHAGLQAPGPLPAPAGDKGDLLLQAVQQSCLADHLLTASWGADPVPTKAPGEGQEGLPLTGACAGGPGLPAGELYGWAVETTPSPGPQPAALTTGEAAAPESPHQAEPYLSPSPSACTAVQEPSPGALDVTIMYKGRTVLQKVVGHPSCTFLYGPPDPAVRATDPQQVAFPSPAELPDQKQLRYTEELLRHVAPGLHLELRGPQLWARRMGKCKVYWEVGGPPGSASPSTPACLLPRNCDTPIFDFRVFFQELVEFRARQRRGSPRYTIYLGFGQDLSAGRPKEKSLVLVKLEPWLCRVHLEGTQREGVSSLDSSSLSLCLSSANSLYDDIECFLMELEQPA
Method: protein-binding microarray
Form: double-stranded DNA, one strand shown
Sample: in vitro
Concentration: 250 nM
Notes: 60-bp whole probe
Added: salmon DNA 0.4 mg/ml
Baseline: random background probes
Reading: higher = stronger binding
All sequences stand within: GCCTAGCAC … GTCTTGATTCGCTTGACGCTGCTG
Oligonucleotide | log fluorescence [z-score]
GACTGACTGGACACTGGGGACGTGCTA | -0.207
GTAGAAAATTCATGTTATAAGTGCTAG | -0.0936
TTAGAACTGAATATCGATTAGTGCTAG | 0.0249
GCATTTTTTTTTTCTACTTCGTGCTAG | 1.45
TTAGAACTGAGTTTCGAGTAGTGCTAG | 3.48
TCAGCTGTTTTTCTCACCACGTGCTAG | 0.0589
TTCTACTTCTCTTTTGGCTTGTGCTAG | 0.88
TACAGGTTCTCTTTTATTTTGTGCTAG | 1.37
TCATTTCTCTTTCACTAACTGTGCTAG | 3.23
GACGGTCTCGGTCTCCGGACGTGCTAG | 1.15
ATAGGTCTCCTTCTCCTTTAGTGCTAG | 0.311
TTGGTGCTCATTTTTTTTGCGTGCTAG | -0.674
TTCTCTCCCATTCTGAATTCGTGCTAG | 1.14
TTAGGACTGGGTCTCAGTTAGTGCTAG | -0.0487
TGAGGTCTCGGTATCGGTTAGTGCTAG | 2.6
TCCTTTATGTACTCTCTACATGTGCTA | 0.896
GCCCTTATCCAATCAGAATTGTGCTAG | 0.781
TTAGGACTGGACTTTCTGTTAGTGCTA | -0.292
GTACCACTCCAGTTCTGGGAGTGCTAG | 1.53
